Results pooled from the literature.
“And” joins repeats or separate records; there may be more than shown. Numbers after ± are the reported error.
Cell line: HeLa

Cc1nc(-c2ccncc2)sc1C(=O)Nc1cccc(C(N)=O)c1
CC50 (cell growth or viability): > 50 µM

COc1ccc(C2CC(=O)c3c(cc(O)c(CC=C(C)C)c3O)O2)cc1 (stereo not shown)
log IC50 (cytotoxicity, MTT; 48 h, with: S9 fraction): > 2 log µM

CCN(CCCC[C@H](NC(=O)[C@H](CCCN)NC(=O)[C@@H](NC(=O)[C@H](Cc1ccccc1)NC(=O)c1ccc(C(C)(C)C)cc1)C1CCC1)C(=O)N[C@@H](CO)C(=O)NCCOCCOCCCCCCCl)C1CC2CCC1C2 (stereo partly shown)
CP50 (cell penetration, chloroalkane penetration; 4 h, chloroalkane-tagged compound): 13 ± 2.6 µM

COc1cc(/C=C/C=C2\SC(=S)NC2=O)ccc1O
viability (CellTiter-Glo; 10 µM, 24 h, unit not given; baseline: untreated): 0.964 and 0.935

CCC(=CCc1c(O)cc2c(c1O)C(=O)CC(c1cccc(OC)c1O)O2)CC (stereo not shown)
log IC50 (cytotoxicity, MTT; 48 h, with: S9 fraction): 1.32 log µM

NCc1cccc(CNC(=O)c2cc(-c3ccccc3)n(-c3ccccc3)n2)c1
CC50 (cell growth or viability): > 50 µM

COc1ccc2ncc(F)c(CC[C@@]3(O)CO[C@@H]4[C@@H](NCc5ccc(Cl)c(Cl)c5)CO[C@@H]43)c2n1
IC50 (cytotoxicity; 24 h): 30 µg/mL

CCC(=CCc1c(O)cc2c(c1O)C(=O)CC(c1ccc(O)cc1OC)O2)CC (stereo not shown)
log IC50 (cytotoxicity, MTT; 48 h, with: S9 fraction): 1.33 log µM

COc1ccc2nccc(CC[C@H]3OC[C@H](NC(=O)c4ccc5c(n4)NC(=O)CS5)CO3)c2c1
IC50 (cytotoxicity; 24 h): > 128 µg/mL

COc1ccc(S(=O)(=O)N(C)c2cc(OC)c(OC)cc2NC(C)=O)cc1
IC50 (cell growth or viability, XTT; 72 h): 51 µM

O=C1C(=O)c2[nH]cc3c2C(=C1Cl)NCC3
CC50 (cell growth or viability, MTT; 72 h): 20 µM

CC(C)C[C@H](NC(=O)[C@@H](NC(=O)[C@H](Cc1ccccc1)NC(=O)c1ccc(CN2CCOCC2)cc1)C1CCC1)C(=O)N[C@@H](CCCCN(C)C1CC2CCC1C2)C(=O)N[C@@H](CO)C(=O)NCCOCCOCCCCCCCl (stereo partly shown)
CP50 (cell penetration, chloroalkane penetration; 4 h, chloroalkane-tagged compound): 6.9 ± 0.7 µM

CN1CCCNC(=O)c2cccc(c2)C(=O)NCCCN(C)CCCNc2cccc3c2C(=O)c2cccc(c2C3=O)NCCC1
viability (cell growth or viability, CCK-8; 50 nM, 48 h): 88.3%

COc1ccc2nccc(CC[C@H]3OC[C@H](NCc4ccc(Cl)c(Cl)c4)CO3)c2c1
IC50 (cytotoxicity; 24 h): 43.5 µg/mL

CN(CCCC[C@H](NC(=O)[C@H](CCCN1CCOCC1)NC(=O)[C@@H](NC(=O)[C@H](Cc1ccccc1)NC(=O)c1ccc(C(C)(C)C)cc1)C1CCC1)C(=O)N[C@@H](CO)C(=O)NCCOCCOCCCCCCCl)C1CC2CCC1C2 (stereo partly shown)
CP50 (cell penetration, chloroalkane penetration; 4 h, chloroalkane-tagged compound): 12 ± 0.97 µM

COc1ccc(S(=O)(=O)N(C)c2cc(OC)cc(C(=O)O)c2)cc1
IC50 (cell growth or viability, XTT; 72 h): > 100 µM

CN(CCCC[C@H](NC(=O)[C@H](CCCN)NC(=O)[C@@H](NC(=O)[C@H](Cc1ccccc1)NC(=O)c1ccc(C(C)(C)C)cc1)C1CCC1)C(=O)N[C@@H](CO)C(=O)NCCOCCOCCCCCCCl)C1CC2CCC1C2 (stereo partly shown)
CP50 (cell penetration, chloroalkane penetration; 4 h, chloroalkane-tagged compound): 15 ± 1.9 µM

COc1ccc2ncc(F)c(CC[C@@]3(O)CO[C@@H]4[C@@H](NCc5ccc(C)cc5)CO[C@@H]43)c2n1
IC50 (cytotoxicity; 24 h): 37.6 µg/mL

O=C(c1cc(-c2ccccc2)n(-c2ccccc2)n1)N(Cc1ccccn1)CC1CCCO1 (stereo not shown)
CC50 (cell growth or viability): > 100 µM

COc1ccc(CCNC2=CC3=[N+](C)CCc4c[nH]c(c43)C2=O)cc1
CC50 (cell growth or viability, MTT; 72 h): 0.2 µM

S=c1n(-c2ccccc2)c2c3ccccc3nc3[n+]2[n]1[Ir-3]12([S]3)([c]3ccc4ccccc4c3-c3sc4ccccc4[n+]31)[c]1ccc3ccccc3c1-c1sc3ccccc3[n+]12
cellular iridium uptake (ICP-MS; 10 µM, 24 h, 37 °C): 0.93 ± 0.23 fmol/cell

NC[C@H]1O[C@H](O[C@H]2[C@H](O)[C@@H](O[C@H]3O[C@H](Cn4cc(CNC(=S)Nc5ccc6c(c5)C(=O)OC65c6ccc(O)cc6Oc6cc(O)ccc65)nn4)[C@@H](O)[C@H](N)[C@H]3O)[C@H](N)C[C@@H]2N)[C@H](O)[C@@H](O)[C@@H]1O
cellular uptake (flow cytometry; 5 µM, 24 h): 24 ± 10.6%

Cc1c(C(=O)Nc2cccc(C(N)=O)c2)cnn1-c1ccccc1
CC50 (cell growth or viability): > 50 µM

CCC(=CCc1c(O)cc2c(c1O)C(=O)CC(c1cccc(O)c1OC)O2)CC (stereo not shown)
log IC50 (cytotoxicity, MTT; 48 h, with: S9 fraction): 1.43 log µM

O=C(O)c1cc(-c2ccccc2)n(-c2ccccc2)n1
CC50 (cell growth or viability): > 50 µM

COc1ccc2nccc(CC[C@H]3OC[C@H](NC(=O)c4ccc(Cl)c(Cl)c4)CO3)c2c1
IC50 (cytotoxicity; 24 h): 64.7 µg/mL

CCC(=CCc1c(O)cc2c(c1O)C(=O)CC(c1c(O)cccc1OC)O2)CC (stereo not shown)
log IC50 (cytotoxicity, MTT; 48 h, with: S9 fraction): > 2 log µM

O=C1C(NCCc2cc(Br)c(O)c(Br)c2)=CC2=NCCc3c[nH]c1c32
CC50 (cell growth or viability, MTT; 72 h): 8 µM

COc1ccc2ncc(F)c(C(O)C[C@H]3OC[C@H](NCc4ccc(Cl)c(Cl)c4)CO3)c2n1 (stereo partly shown)
IC50 (cytotoxicity; 24 h): > 128 µg/mL

NC(=O)c1cccc(NC(=O)c2cc(-c3cccs3)n(-c3ccc(Cl)cc3)n2)c1
CC50 (cell growth or viability): > 100 µM

COc1ccc2ncc(F)c(CC[C@H]3OC[C@H](NCc4ccc(Cl)c(Cl)c4)CO3)c2n1
IC50 (cytotoxicity; 24 h): 53.3 µg/mL

S=c1n(-c2ccccc2)c2c3ccccc3nc3[n+]2[n]1[Ir-3]12([S]3)([c]3ccccc3-c3cccc[n+]31)[c]1ccccc1-c1cccc[n+]12
cellular iridium uptake (ICP-MS; 10 µM, 24 h, 37 °C): 2.85 ± 0.31 fmol/cell

C=CCc1c(O)cc2c(c1O)C(=O)CC(c1ccc(O)cc1)O2 (stereo not shown)
log IC50 (cytotoxicity, MTT; 48 h, with: S9 fraction): > 2 log µM

N#Cc1cc(NC(=O)c2cc(-c3ccccc3)n(-c3ccccc3)n2)ccc1N1CCCC1
CC50 (cell growth or viability): > 50 µM

COc1ccc2ncc(F)c(C[C@H](O)[C@H]3OC[C@H](NCc4ccc(Cl)c(Cl)c4)CO3)c2c1
IC50 (cytotoxicity; 24 h): 28.8 µg/mL

CCOC(=O)c1cnc(NCc2cccc(NC(=O)c3cc(-c4ccccc4)n(-c4ccccc4)n3)c2)nc1
CC50 (cell growth or viability): > 50 µM

COC1=CC2=NCCc3c[nH]c(c32)C1=O
CC50 (cell growth or viability, MTT; 72 h): 10 µM

A few entries again:
CCC(=CCc1c(O)cc2c(c1O)C(=O)CC(c1c(O)cccc1OC)O2)CC (stereo not shown)
log IC50 (cytotoxicity, MTT; 48 h, with: S9 fraction): > 2 log µM

COc1ccc2ncc(F)c(CC[C@@]3(O)CO[C@@H]4[C@@H](NCc5ccc(Cl)c(Cl)c5)CO[C@@H]43)c2n1
IC50 (cytotoxicity; 24 h): 30 µg/mL

S=c1n(-c2ccccc2)c2c3ccccc3nc3[n+]2[n]1[Ir-3]12([S]3)([c]3ccccc3-c3cccc[n+]31)[c]1ccccc1-c1cccc[n+]12
cellular iridium uptake (ICP-MS; 10 µM, 24 h, 37 °C): 2.85 ± 0.31 fmol/cell

CN(CCCC[C@H](NC(=O)[C@H](CCCN)NC(=O)[C@@H](NC(=O)[C@H](Cc1ccccc1)NC(=O)c1ccc(C(C)(C)C)cc1)C1CCC1)C(=O)N[C@@H](CO)C(=O)NCCOCCOCCCCCCCl)C1CC2CCC1C2 (stereo partly shown)
CP50 (cell penetration, chloroalkane penetration; 4 h, chloroalkane-tagged compound): 15 ± 1.9 µM

COc1ccc(C2CC(=O)c3c(cc(O)c(CC=C(C)C)c3O)O2)cc1 (stereo not shown)
log IC50 (cytotoxicity, MTT; 48 h, with: S9 fraction): > 2 log µM
